Measurements of several laboratories.
Protocols differ between the studies behind these lines. Several values in a cell are separate wells, animals, samples, runs or records. pEC50: −log10 of the molar value. Values after ≈ are worked out from the molar mass of the structure shown.
Organism: Escherichia coli

CCCCCC(=O)N[C@@H](CCCNC(=N)N)C(=O)N[C@@H](CCCNC(=N)N)C(=O)N[C@@H](CCCNC(=N)N)C(=O)N[C@@H](CCCNC(=N)N)C(=O)N[C@H](C(=O)N[C@@H](CC(C)C)C(=O)N[C@H](C(=O)N[C@@H](CCCNC(=N)N)C(=O)N[C@@H](CCCNC(=N)N)C(=O)N[C@H](C(=O)N[C@@H](CC(C)C)C(=O)N[C@@H](CCCNC(=N)N)C(=O)N[C@@H](CC(C)C)C(=O)N[C@@H](CCCNC(=N)N)C(=O)N[C@@H](CO)C(=O)N[C@@H](CO)C(=O)N[C@@H](C)C(=O)N[C@@H](Cc1ccc(O)cc1)C(N)=O)C(C)C)[C@@H](C)CC)[C@@H](C)CC — FICI (checkerboard; unit not given, added: azithromycin; lower means synergy): ~0.19
O=[N+]([O-])c1cc2cc3ccc4oc([N+](=O)[O-])cc4c3cc2o1 — MIC90 (REMA): > 32 µg/mL
C[C@H]1[C@H](NC(=O)/C(=N\OC(C)(C)C(=O)O)c2csc(N)n2)C(=O)N1S(=O)(=O)O — ED50 (ATCC 2469 NDM-1, ICR mouse systemic infection; intravenous): 70.1 mg/kg
CC(C)Cc1ccc(C(C)C(=O)O)cc1 (centres unmarked) — SOS response induction (MG1655 RecA-GFP; 100 µM, 4 h): 14%
CC[C@H](C)[C@H](NC(=O)[C@H](CC(C)C)NC(=O)[C@@H](NC(=O)[C@H](CCCNC(=N)N)NC(=O)[C@H](CCCNC(=N)N)NC(=O)[C@H](CCCNC(=N)N)NC(=O)[C@@H](N)CCCNC(=N)N)[C@@H](C)CC)C(=O)N[C@@H](CCCCN)C(=O)N[C@@H](CCCCN)C(=O)N[C@H](C(=O)N[C@@H](CC(C)C)C(=O)N[C@@H](CCCCN)C(=O)N[C@@H](CC(C)C)C(=O)N[C@@H](CCCCN)C(=O)N[C@@H](CO)C(=O)N[C@@H](CO)C(=O)N[C@@H](C)C(=O)N[C@@H](Cc1ccc(O)cc1)C(N)=O)C(C)C — FICI (checkerboard; unit not given, added: rifampicin; lower means synergy): 0.19
CC(C)C[C@H](NC(=O)[C@H](CCN)NC(=O)[C@H](CCN)NC(=O)[C@@H](Cc1ccccc1)NC(=O)[C@H](CC(C)C)NC(=O)[C@H](CCN)NC(=O)[C@H](CCN)NC(=O)[C@@H](CCN)NC(=O)[C@@H](N)CSCCOC(=O)C(C)(C)C)C(N)=O — MBC (ATCC 10546; 24 h, 37 °C): 16 µM
CC[C@@H](C)[C@@H](N)C(=O)N[C@@H](C(=O)N[C@H](Cc1ccc(O)cc1)C(=O)N[C@@H](C(=O)N[C@H](CCCNC(=N)N)C(=O)N[C@H](CC(C)C)C(=O)N[C@H](CO)C(=O)N[C@H](CCCNC(=N)N)C(=O)N[C@@H](C(=O)N[C@H](CCCNC(=N)N)C(=O)N[C@H](Cc1c[nH]cn1)C(=O)N[C@H](CCCNC(=N)N)C(=O)N[C@H](C)C(=O)N[C@H](CCCNC(=N)N)C(=O)N[C@H](CCCNC(=N)N)C(N)=O)[C@H](C)CC)[C@H](C)CC)[C@H](C)CC — MBC (ATCC 25922, Mueller-Hinton broth; 20 h, 37 °C): 8 µg/mL
CC(C)C[C@H](NC(=O)[C@H](CCN)NC(=O)[C@H](CCN)NC(=O)[C@@H](Cc1ccccc1)NC(=O)[C@H](CC(C)C)NC(=O)[C@H](CCN)NC(=O)[C@H](CCN)NC(=O)[C@@H](CCN)NC(=O)[C@@H](N)CSCCOC(=O)c1ccccc1)C(N)=O — MBC (ATCC 10546; 24 h, 37 °C): 8 µM
O=C(O)c1cccc(C(=O)O)n1 — fold MIC reduction (ATCC 25922, no carbapenemase; 32 µg/mL, added: meropenem; baseline: meropenem alone): ≥ 1
C[C@@H](O)[C@H]1C(=O)N2C(C(=O)O)=C(S[C@@H]3CN[C@H](C(=O)N(C)C)C3)[C@H](C)[C@H]12 — log10 CFU difference (neutropenic rat, lung infection; intravenous, 15 mg/kg every 12 h, second study): -0.25 and -0.28 and -0.7
COc1ccc2c(ccc3oc([N+](=O)[O-])c(C)c32)c1 — MIC90 (REMA): > 32 µg/mL
CCn1cc(C(=O)O)c(=O)c2cc(F)c(N3CCNCC3)cc21 — MIC fold increase (ATCC 25922; 30 generations; baseline: generation 1 MIC): 128 fold
O=[N+]([O-])c1cc2c(ccc3c2ccc2cc([N+](=O)[O-])oc23)o1 — MIC90 (REMA): > 32 µg/mL
CC[C@H](C)[C@H](NC(=O)[C@H](CC(C)C)NC(=O)[C@H](CCCNC(=N)N)NC(=O)[C@H](CCCNC(=N)N)NC(=O)[C@H](CCCNC(=N)N)NC(=O)[C@H](CCCNC(=N)N)NC(=O)[C@H](CC(C)C)NC(=O)[C@@H](NC(=O)[C@@H](NC(=O)[C@@H](NC(=O)[C@H](CC(C)C)NC(=O)[C@H](CCCNC(=N)N)NC(=O)[C@H](CO)NC(=O)[C@@H](N)CO)C(C)C)[C@@H](C)CC)[C@@H](C)CC)C(=O)N[C@@H](CO)C(=O)N[C@@H](CCCNC(=N)N)C(=O)N[C@@H](CCCNC(=N)N)C(=O)N[C@@H](CCCNC(=N)N)C(=O)N[C@@H](CCCNC(=N)N)C(N)=O — MIC range: 1 to 2 µM (≈ 2.46 to 4.92 µg/mL)
CC[C@@H](C)[C@@H](N)C(=O)N[C@@H](C(=O)N[C@H](Cc1ccc(O)cc1)C(=O)N[C@@H](C(=O)N[C@H](CCN)C(=O)N[C@H](CC(C)C)C(=O)N[C@H](CO)C(=O)N[C@H](CCN)C(=O)N[C@@H](C(=O)N[C@H](CCN)C(=O)N[C@H](Cc1c[nH]cn1)C(=O)N[C@H](CCN)C(=O)N[C@H](C)C(=O)N[C@H](CCN)C(=O)N[C@H](CCN)C(N)=O)[C@H](C)CC)[C@H](C)CC)[C@H](C)CC — MBC (ATCC 25922, 100% human serum; 20 h, 37 °C): 8 µg/mL
CC[C@H](C)[C@H](NC(=O)[C@H](Cc1ccccc1)NC(=O)[C@@H](NC(=O)[C@H](CO)NC(=O)[C@@H](N)CCCNC(=N)N)[C@@H](C)CC)C(=O)N[C@@H](CCCCN)C(=O)N[C@@H](Cc1ccc(O)cc1)C(=O)N[C@@H](CCCCN)C(=O)N[C@@H](CO)C(=O)N[C@@H](CCCCN)C(=O)N1CCC[C@H]1C(=O)N[C@@H](Cc1ccccc1)C(=O)N[C@@H](CS)C(=O)N[C@@H](CCC(=O)O)C(=O)N[C@@H](CCCCN)C(=O)N[C@@H](CC(C)C)C(=O)N[C@@H](CC(C)C)C(=O)N[C@@H](CO)C(=O)N[C@@H](Cc1c[nH]c2ccccc12)C(=O)N[C@H](C(=O)N[C@@H](CCCCN)C(=O)N[C@@H](CO)C(=O)O)C(C)C — MBC (K12 MG1655): 32 µg/mL
CC[C@H](C)[C@H](NC(=O)CNC(=O)[C@@H](NC(=O)[C@H](Cc1ccccc1)NC(=O)[C@H](Cc1ccc(O)cc1)NC(=O)[C@@H]1CCC(=O)NCC(=O)NCC(=O)N[C@@H](C)C(=O)NCC(=O)N[C@@H](Cc2c[nH]cn2)C(=O)N[C@@H](C(C)C)C(=O)N2CCC[C@H]2C(=O)N1)C(C)C)C(=O)NCC(=O)N[C@H](C(=O)N1CCC[C@H]1C(=O)N[C@H](C(=O)N[C@@H](CO)C(=O)N[C@@H](Cc1ccccc1)C(=O)N[C@@H](Cc1ccc(O)cc1)C(=O)NCC(=O)O)[C@@H](C)CC)[C@@H](C)O — growth inhibition (ΔtolC, plasmid wild-type rpoC; 5 µM, 16 h, 37 °C; baseline: untreated): 100%
CC[C@H](C)[C@H](NC(=O)[C@H](Cc1c[nH]c2ccccc12)NC(=O)[C@@H](NC(=O)[C@H](Cc1c[nH]c2ccccc12)NC(=O)[C@@H]1CCCN1C(=O)[C@@H](NC(=O)[C@H](C)N)[C@@H](C)CC)[C@@H](C)CC)C(=O)N[C@@H](Cc1c[nH]c2ccccc12)C(=O)N[C@@H](CCCNC(=N)N)C(=O)N[C@@H](CC(C)C)C(=O)N[C@@H](CC(C)C)C(=O)N[C@@H](CCCNC(=N)N)C(=O)N[C@@H](CCCCN)C(=O)NCC(N)=O — MBC (D31; 18 h, 37 °C): 7.5 µM
COc1ccc2c(ccc3oc([N+](=O)[O-])c(OC)c32)c1 — MIC90 (REMA): > 32 µg/mL
C[C@@H](O)[C@H]1C(=O)N2C(C(=O)O)=C(S[C@@H]3CN[C@H](C(=O)N(C)C)C3)[C@H](C)[C@H]12 — MIC fold increase (DH5a clone with KPC-100; baseline: empty vector strain): > 4 fold
O=[N+]([O-])c1cc2c(ccc3c4cc([N+](=O)[O-])oc4ccc23)o1 — MIC90 (REMA): > 32 µg/mL
CC(C)C[C@H](NC(=O)[C@H](CCCCN)NC(=O)OCC1c2ccccc2-c2ccccc21)C(=O)N[C@H](C(=O)N[C@@H](Cc1ccccc1)C(=O)N[C@@H](Cc1ccccc1)C(=O)N[C@@H](CCCCN)C(=O)NCC(=O)N[C@@H](Cc1ccccc1)C(=O)N[C@@H](C)C(=O)N[C@@H](Cc1c[nH]c2ccccc12)C(=O)N[C@@H](CC(N)=O)C(=O)N[C@H](C(=O)N[C@H]1CSSC[C@@H](C(=O)N[C@@H](Cc2c[nH]cn2)C(=O)N[C@@H](CCCNC(=N)N)C(=O)N[C@@H](CCCNC(=N)N)C(=O)N[C@@H](C)C(=O)N[C@@H](CC(N)=O)C(N)=O)NC(=O)[C@H](C(C)C)NC(=O)[C@H](CCCNC(=N)N)NC(=O)[C@H](C(C)C)NC(=O)CNC(=O)[C@H](CC(N)=O)NC(=O)[C@H](CCCNC(=N)N)NC(=O)[C@H](Cc2ccc(O)cc2)NC(=O)[C@H](C(C)C)NC1=O)C(C)C)C(C)C — pEC50 (bactericidal activity; CGMCC 1.9; 24 h): 5.40
CC1(C)S[C@@H]2[C@H](NC(=O)C(C(=O)O)c3ccccc3)C(=O)N2[C@H]1C(=O)O (some centres unmarked) — zone of inhibition (ΔtolC JW5503-1; 200 µM, added: 30 µg/mL 2,2'-bipyridyl): 17 mm
CC[C@H](C)[C@H](NC(=O)[C@H](CCCNC(=N)N)NC(=O)[C@H](CCCNC(=N)N)NC(=O)[C@H](CCCNC(=N)N)NC(=O)[C@H](CCCNC(=N)N)NC(=O)[C@H](CCCNC(=N)N)NC(=O)[C@@H](N)CCCNC(=N)N)C(=O)N[C@@H](CO)C(=O)N[C@@H](Cc1ccccc1)C(=O)N[C@@H](CC(C)C)C(=O)NCC(=O)N[C@@H](CO)C(=O)N[C@@H](CCCCN)C(=O)N[C@@H](CCCCN)C(=O)N[C@@H](CCCCN)C(=O)N[C@@H](CCCCN)C(=O)N[C@@H](CCCCN)C(=O)N[C@@H](CC(C)C)C(=O)N[C@@H](CC(C)C)C(=O)N[C@@H](CCCCN)C(=O)N[C@@H](CCCNC(=N)N)C(N)=O — FICI (checkerboard; unit not given, added: rifampicin; lower means synergy): 0.13
C[C@@H](O)[C@H]1C(=O)N2C(C(=O)O)=C(S[C@@H]3CN[C@H](CNS(N)(=O)=O)C3)[C@H](C)[C@H]12 — MIC fold reduction (checkerboard; carbapenem-resistant; concentration not given, added: anionic gold nanoparticle 8 µg/mL; baseline: MIC alone over combination): > 16 fold
Cc1cc(-c2cn[nH]c2-c2cccc(OCc3cccc(C#N)c3)c2)cc(C)n1 — MIC90 (multidrug-resistant clinical isolates): 4 µg/mL (≈ 10.5 µM)

A few entries again:
COc1ccc2c(ccc3oc([N+](=O)[O-])c(C)c32)c1 — MIC90 (REMA): > 32 µg/mL
COc1ccc2c(ccc3oc([N+](=O)[O-])c(OC)c32)c1 — MIC90 (REMA): > 32 µg/mL
